Experimental data gathered from unrelated publications.
Compare with care: the assays were run in different laboratories.
Cell line: NCI-H460

With `Cn1cncc1C1=CN(c2ncnc3[nH]cnc23)CCS1` the CC50 was over 200000 nM (lung cancer).
With `Nc1ncc(-c2nc(N3CCOCC3)nc(N3CCOCC3)n2)c(C(F)F)n1` the GI50 was 67 nM (72 h).
`COc1c(C)c2c(c(O)c1C/C=C(\C)CCC(=O)O)C(=O)OC2` gave an IC50 of 288 nM (cell proliferation; lung cancer).
`N.N.[Cl][Pt][Cl]` gave a cell death of 69% (high-content imaging; 40 µM).
With `COc1cc(CCC[P+](c2ccccc2)(c2ccccc2)c2ccccc2)c(OC)c2c1OCO2.[I-]` the GI50 was -5.74 log M (SRB).
For `CC(C)N1CCC(NC2CCN(c3cccc(-c4cc5cc(F)ccc5[nH]4)c3)CC2)CC1`, the CC50 was 5050 nM.
The CC50 of `CCN(CC)c1ccc(C=NNC(=O)CSc2nc3ccccc3c(=O)n2Cc2ccc(S(N)(=O)=O)cc2)c(O)c1` is reported as over 100000 nM (NCI five-dose screen).
`COc1c(CCC[P+](c2ccccc2)(c2ccccc2)c2ccccc2)cc2c(c1OC)OCO2.[I-]` gave a GI50 of -5.84 log M (SRB).

Repeated from above:
With `COc1cc(CCC[P+](c2ccccc2)(c2ccccc2)c2ccccc2)c(OC)c2c1OCO2.[I-]` the GI50 was -5.74 log M (SRB).
